Assay results collected from several papers.
Numbered parts are unrelated; each lists some results of a single study.

Block 1
Target: RNA binding protein fox-1 homolog 2, RRM domain, GST-SBP tag (RBFOX2, Homo sapiens, UniProt O43251-10, residues 100-194)
Technique: RNA Bind-n-Seq
Molecule type: RNA
Medium: in vitro
Concentration: 365 nM
Setting: natural RNA segment, single round, ends assumed
Baseline: no-protein control
Reading: higher = stronger binding
Shared flanks, not repeated: GGGAGUUCUACAGUCCGACGAUC … UGGAAUUCUCGGGUGCCAA
Residues (chain): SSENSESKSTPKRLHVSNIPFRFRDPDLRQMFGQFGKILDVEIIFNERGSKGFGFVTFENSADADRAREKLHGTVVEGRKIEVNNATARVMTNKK
Strand	RBNS enrichment (R)
UCCUCCCUGUUAUUUCCAAGUAGCUGGGAUUUUAAACUAGAUGACCUCAUUAACCAGUGCUUUACCAAACAGCAAACCAAGAGAUUGCUAAUUGCUGUUGAAAGCAAAAA	0.335
AUAAGUUCUUAAGAUGUGUUGGCAGUAUUGCGUCACCCACGGCCGUCCCGGGGGCUGAACGUGUGGCGUUUGGUUACUGAAGCCUGCUCAGGCGAAGCUGGGUCUUGUGC	0.275
UAUCCUGGGUAGGGUGAAAACCCUCAAGUAGUAUUUUUAUGAGCCUGGCAUGGUGAUAUAACUGAAAUCCCUGCACUUGGGAGGGUCACAAGUUUGAGGACCACCUUGGU	1.76
ACUGUUGCCCUCUCUGUGUCUGCACACAUAAUGCCUCUCUCACUUUGGUGAAAUAUCAAAAAAAUGCAAGUACAGCAUGCAUAUUUAAGAAUUUCUGAACUAACACUUGA	1.51
UGUGGGAGCUCAGCUCGCUGCCCAGGGAUAGGUAUGACCUAUGUCUGCCUUAGGCUGCUGGGAGAUGCCAUUCUCCAGUUUCAGAAGCAGGCAGGGCAAAGGUCAAGACU	0.292
GCUGCUCCUCCAGGAAAGGGUGAGGUCCGUGCUCAGCUAUGCUUGCAGGCCUGCUGUCCUCACUCCAGAAUGAGUGCUGGCUCUGCCUCUGGCUGCAGAGUUGAGGUUGG	0.449

Block 2
Target: Prothrombin, mature alpha-thrombin (F2, Homo sapiens, UniProt P00734)
Technique: aptamer microarray, sandwich
Molecule type: DNA with 2'F-ANA
Medium: in vitro
Concentration: 200 nM
Setting: whole 15-mer aptamer, many near background
Added: Cy3 exosite-II aptamer, 400 nM
Reading: higher = stronger binding
Strand: GGTTGGTGTGGTTGG
Modification	mean fluorescence intensity
2'F-ANA at 3 6 7 8 9 10 12 14	439 a.u.
2'F-ANA at 1 4 5 6 10 11 14	50.6 a.u.
2'F-ANA at 2 5 10 11 13 14 15	46.8 a.u.
2'F-ANA at 4 7 10 11 12 13	92.9 a.u.
2'F-ANA at 6 7 9 11 14	159 a.u.
2'F-ANA at 1 2 3 4 6 7 12 15	346 a.u.
2'F-ANA at 1 4 8 9 13 14	72.6 a.u.
2'F-ANA at 1 3 5 7 8 10 12 15	51.6 a.u.

Block 3
Target: Histone acetyltransferase KAT6A, winged helix 2, GST fusion (KAT6A, Homo sapiens, UniProt Q92794, residues 85-181)
Technique: protein binding microarray
Molecule type: double-stranded DNA, one strand shown
Medium: in vitro
Concentration: not given
Setting: 8-mer, flanks averaged, mean of 2 arrays, mostly near background
Baseline: not given
Reading: higher = stronger binding
Construct (chain): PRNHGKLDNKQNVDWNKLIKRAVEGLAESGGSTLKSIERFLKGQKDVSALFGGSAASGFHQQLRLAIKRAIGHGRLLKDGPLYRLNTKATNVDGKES
Strand	E-score
GAGGGCCC	-0.0456
ACCGAGAT	0.0501
GCTTCGTA	0.0286
GGCTCAAC	-0.0201
GACGAAGC	-0.00291
ACGGTGGG	-0.0198
AAATGGTG	0.0288
CGCTCACC	-0.0759

Mixed results
Substance	target	assay	system	conditions	how to read	measurement	result
PhoQ, residues 284 288 289 292 302 303 SVTLVV	PhoP, residues 12 14 15 18 19 SMASL (Escherichia coli, UniProt P23836)	Sort-seq, item: YFP reporter	E. coli	PhoQ-PhoP variant library, added: 10 µM Mg2+	baseline: high Mg2+ state, higher = stronger signaling	fold induction	6.6

A few entries again (block 1):
Strand	RBNS enrichment (R)
UCCUCCCUGUUAUUUCCAAGUAGCUGGGAUUUUAAACUAGAUGACCUCAUUAACCAGUGCUUUACCAAACAGCAAACCAAGAGAUUGCUAAUUGCUGUUGAAAGCAAAAA	0.335
AUAAGUUCUUAAGAUGUGUUGGCAGUAUUGCGUCACCCACGGCCGUCCCGGGGGCUGAACGUGUGGCGUUUGGUUACUGAAGCCUGCUCAGGCGAAGCUGGGUCUUGUGC	0.275
